Measurements pooled from the literature.
Lines come from different studies, so protocols differ. Values joined by “and” are separate records of one study, mostly repeats; a detail may differ. ± gives the spread as reported.

The VO2 of Cc1c(C)n(Cc2cccc(OC(C)(C)C(=O)O)c2)c2ccc(C(=O)N[C@@H](C)c3ccc(C(C)(C)C)cc3)cc12 is reported as 73.2 ± 5.94 mL/min/kg (indirect calorimetry; lean mice; dose not given, average over 72 h, end of treatment).
COc1cc(-c2ccccc2)ncc1C(=O)Nc1ccc2c(=O)[nH]c(-c3ccc(C(C)(C)O)cc3)nc2c1 — result for “normalized enrichment score”: -1 (RNA-seq GSEA, refers to: FALLER_STEM_MOUSE; organoids, small intestinal, Apc Q1405X, mouse; dose not given, wild-type organoids; reference: DMSO, direction not given).
For COc1ccc(-c2cncc(N[C@@H](C)c3cccc(NC(=O)c4cncc(C)c4)c3)n2)cc1OC, the fold change was 1.56 (refers to: rno-miR-22-3p; rat SU5416/hypoxia model, lung; dose not given; reference: SU5416/hypoxia vehicle).
Under “log2 fold change”, c1ccc(-c2n[nH]cc2-c2ccnc3ccccc23)nc1 is recorded as 1.26 (kinase binding, competitor, MIB/MS competition, refers to: KIN3; Candida albicans cell lysate; 1 µM; reference: DMSO).
O=C1N[C@H](c2cncc(C#Cc3ccccc3)c2)[C@@H](c2ccccc2Cl)O1 — result for C1q level: “no effect” (immunoblot; dKI mice, total homogenate; dose not given).
With O=C(O)CNC(=O)Cc1ccccc1 the sarcomere length was 1.72 µm (ventricular cardiomyocytes, C57BL/6 mouse; dose not given, 0.752 s).
COc1ccccc1[C@H](Cn1c(=O)n(C(C)(C)C(=O)O)c(=O)c2c(C)c(-c3ncco3)sc21)OC1CCOCC1 — result for “blood VLDL level”: 13 ± 13.4 mg/dL (human; 50 mg, post-treatment).
For NC(=O)c1cnc2[nH]ccc2c1N[C@@H]1[C@@H]2CC3C[C@H]1C[C@@](O)(C3)C2, the percent change was 0.23% (CD8+ effector T cells, flow cytometry; Caucasian humans, peripheral blood; 20 mg single dose; reference: baseline).
The AUC(0-t) of CN(C(=O)n1cnc(-c2ccc[n+]([O-])c2)c1)C1CCCCC1 is reported as 330 ng·h/mL (refers to: LEA; human, plasma; 40 mg single dose).
For C=Cc1c(C)c2cc3nc(c(CC(=O)O)c4[nH]c(cc5nc(cc1[nH]2)C(C)=C5CC)c(C)c4C(=O)O)[C@@H](CCC(=O)O)[C@@H]3C, “CD80+ CD86+ dendritic cells” read 24.5% and 25.5% and 27.1% (flow cytometry; 4T1 tumour-bearing mice, spleen; 2.5 mg/kg).
For C[C@H]1C[C@H]2CSC(N)=N[C@@]2(c2nc(NC(=O)c3ccc(OC(F)F)cn3)cs2)CO1, “percent change from baseline” read -72.2% (refers to: Aβx-40; healthy adults, plasma; 540 mg single dose, 24 h post-dose; reference: placebo).
For C=CCn1c(=O)c2cnc(Nc3ccc(N4CCN(C)CC4)cc3)nc2n1-c1ccc2c(n1)[C@@](O)(CC)CC2, “tumour volume difference” read -80.3 ± 4.2 mm3 (NOD/SCID mouse, A-427 xenograft; oral, 80 mg/kg once daily, 5 d on 2 d off ×1, day 42; reference: vehicle).
Cc1ncsc1-c1ccc(CNC(=O)[C@@H]2C[C@@H](O)CN2C(=O)[C@@H](NC(=O)C2(C#N)CC2)C(C)(C)C)cc1 gave an HIF-1α level of 50.2 MFI (immunostaining; Mus musculus, meninges around middle cerebral artery; dose not given, together with: urotensin II in aCSF).
The DHO concentration of Cc1cc(Nc2ccc(S(F)(F)(F)(F)F)cc2)n2nc(C(C)(F)F)nc2n1 is reported as 1.59 ± 0.14 µM (refers to: dihydroorotate; female CD-1 mice, blood; oral, 300 mg/kg daily, 8 h after dose 3).
N#Cc1ccc2c(c1)[C@H]1CCCN(C(=O)c3ccc4[nH]cnc4c3)[C@H]1C2: “change from baseline” 3.03 nmol/L (refers to: androstenedione; human male, Phase II trial; oral, 20 mg once daily, HPA axis, mean).
Under “peak grip force”, C[C@H](Oc1ccc(Br)cc1-c1ccon1)C(=O)O is recorded as -2.1 kg (handgrip dynamometry; healthy human males; 600 mg once daily, multiple doses; reference: placebo).
Under “time on bar”, CCN(CC)CCNC(=O)c1cc(S(C)(=O)=O)ccc1OC is recorded as 35.8 s and 38.8 s and 12.8 s and 25.5 s and 32.1 s (catalepsy bar test; female CD-1 mice; intraperitoneal, 200 mg/kg, 90 min after dosing).
CO[C@H]1CC[C@H](N2C(=O)CNc3ncc(-c4ccc(C(C)(C)O)nc4)nc32)CC1: “p4EBP1 change from baseline” -33.3% (flow cytometry; stimulated T cells, human, blood; 60 mg single dose, 5 h, mean; reference: baseline).
For CC(C)[C@H](C(=O)Nc1ccc(C(=O)NO)cc1)c1ccccc1, “annual tumour growth rate” read 50.1 %/year (volumetric MRI; human, left IAC schwannoma; 10 days treatment, post-treatment, day 23).
The inhibition of CN[C@@H]1COc2c(S(=O)(=O)NC(=O)Nc3c4c(cc5c3CCC5)CCC4)cnn2C1 is reported as 99.9% (refers to: IL-1β; human participants, whole blood ex vivo; 900 mg twice daily, multiple doses, 148 h, together with: LPS/ATP; reference: baseline).
OC(CCN1CCCCC1)(c1ccccc1)C1CC2C=CC1C2 (stereo not shown) — result for “change, Delta EEG power, in O2-Pz”: 22% (resting-state EEG; healthy elderly humans; oral, 2 mg, eyes closed, LS mean; reference: baseline).
Cc1n[nH]c2ccc(-c3cc(OC[C@@H](N)Cc4ccccc4)cnc3-c3ccoc3)cc12: “log2 fold change” -1.74 (kinase binding, competitor, MIB/MS competition, refers to: CEK1; Candida albicans cell lysate; 10 µM; reference: DMSO).
For Cn1cc([C@H]2C[C@H]3CSC(N)=N[C@@]3(c3ccc(F)cc3F)CO2)cn1, the Aβ42 level was 0.35 ng/g (refers to: Aβx-42; Mus musculus wild-type, brain; subcutaneous, 50 mg/kg, 3 h).
Under “fold change from baseline”, N#CCC1CCN(c2nc(Nc3ccc(N4CCC(O)CC4)cc3)c3c(=O)[nH]ncc3n2)CC1 is recorded as -1.4 (Olink multiplex, refers to: CD163; human, serum; 40 mg, day 15; reference: baseline).
The B cells of CC#CC(=O)N[C@H]1CCCN(c2c(F)cc(C(N)=O)c3[nH]c(C)c(C)c23)C1 is reported as -9.8 % change (human, peripheral blood; 3 mg once daily, day 15; reference: baseline).
C[C@@H]1CCC[C@H](n2cnc(-c3cc(Cl)ccc3-n3cc(Cl)nn3)cc2=O)c2cc(ccn2)-c2c(cnn2C(F)F)NC1=O: “concentration for aPTT prolongation” over 40 µM (rat plasma; IC2.5× aPTT, Actin FS reagent).
For N#Cc1ccc2c(-c3ccncc3)c(-c3ccc(F)cc3)nn2c1, “log2 fold change” read 0.484 (kinase binding, competitor, MIB/MS competition, refers to: HRK1; Candida albicans cell lysate; 10 µM; reference: DMSO).
CCOc1c([C@H](C)n2nc(C)c3c(N)ncnc32)cc(Cl)c(F)c1[C@@H]1CNC(=O)C1 — result for “plasma protein level change”: -48% (Olink proximity extension proteomics, refers to: IL12A; human FL or MZL patients, plasma; dose not given, week 8; reference: baseline).
CC1(C)CCC(CN2CCN(c3ccc(C(=O)NS(=O)(=O)c4ccc(NCC5CCOCC5)c([N+](=O)[O-])c4)c(Oc4cnc5[nH]ccc5c4)c3)CC2)=C(c2ccc(Cl)cc2)C1 gave an EC50 of 8 nM (cell kill, PI exclusion flow cytometry; CD3+ nodal neoplastic T cells, human; 24 h).
For C[C@@H](NC(=O)N1C(=O)[C@H](Cc2ccnc(N)c2)[C@H]1C(=O)O)C1CCCCC1, the ACT Emax was 132 s (human; iv infusion, 0.3 mg/kg/h, 24 h).
Under “pathway activation z-score”, Cn1cc(Nc2nccc(-c3ccc4c(c3)CN(C3COC3)CC[C@H]4NC(=O)c3cn(C(C)(C)C)nn3)n2)cn1 is recorded as 4.49 (refers to: Cardiac Hypertrophy Signaling; splenic B cells, mouse; in vivo, 30 mg/kg, IgD-activated B cells; reference: vehicle, positive = activation).
CN(C)C(=O)Oc1cccc([N+](C)(C)C)c1 gave a train-of-four ratio of 69.1 (neuromuscular block reversal; rat; dose not given, 9 (unit not given), together with: cisatracurium; reference: T1 twitch).
For NCC(=O)Nc1cncc(-c2nn3c(=O)cc(N4CCNCC4)nc3s2)c1, “inhibition of platelet aggregation” read 14% (ADP-induced platelet aggregation, light transmission aggregometry; human stable CAD patients on aspirin, platelets ex vivo; 0.04 mg/kg, 5 min post dose, together with: 20 µM ADP; reference: placebo difference).
COc1nnc2ccc(N3CCC(c4ccc(OCCN5CCN(C)C(=O)[C@H]5C)cc4)CC3)nn12: “time above HEXIM1 threshold” 10.2 h (human patients; 20 mg twice daily, 1.5-fold above baseline).
The k4 of O=C(OC(C(F)(F)F)C(F)(F)F)N1CCN(Cc2cccc(Oc3ccccc3)c2)CC1 is reported as 0.07 min⁻¹ (PET blocking study; rhesus monkey, brain HIP; 0.1 mg/kg, compound pretreatment, together with: [18F]T-401 tracer).
With CC(C)NCC(O)c1ccc(O)c(O)c1 (stereo not shown) the sarcomere length was 1.6 µm (ventricular cardiomyocytes, C57BL/6 mouse; dose not given, 0.248 s).
COc1ncc(-c2nc3c(n2C(C)C)[C@H](c2ccc(Cl)cc2)N(c2cc(Cl)cn(C)c2=O)C3=O)c(OC)n1: “best overall response” 0% (International Working Group criteria; human acute myeloid leukemia patients; oral, 350 to 400 mg, response Unknown, high-dose, other doses).
Under “log2 fold change”, N#Cc1ccn2c(-c3ccncc3)c(-c3ccc(F)cc3)nc2c1 is recorded as -0.18 (kinase binding, competitor, MIB/MS competition, refers to: SCH9; Candida albicans cell lysate; 10 µM; reference: DMSO).
Under “embryos reaching blastocyst”, O=S(=O)(NCCNC/C=C/c1ccc(Br)cc1)c1cccc2cnccc12 is recorded as 0% (mouse zygotes; 20 µM, 72 h post-hCG).
Cn1cc(Nc2nc(N)nc(-c3cccc(-n4ccc5cc(C6CC6)cc(F)c5c4=O)c3CO)n2)cn1 has an inhibition of 91% (CD63 upregulation, anti-IgE-induced; human, multiple ascending dose, whole blood basophils ex vivo; 150 mg twice daily, day 14, 8 h).
CC(=O)NCC(=O)NCC(=O)N[C@H](C(=O)N[C@@H](Cc1ccc(O)cc1)C(=O)N[C@@H](CO)C(=O)N[C@H]1CSSC[C@@H](C(=O)N[C@@H](CCCNC(=N)N)C(=O)N2CCC[C@H]2C(=O)N[C@@H](CCC(N)=O)C(=O)N[C@@H](CCCNC(=N)N)C(=O)NCC(=O)NCCC(=O)N[C@@H](CCCCNC(=O)CN(CC(=O)NCCCC[C@H](NC(=O)CCNC(=O)CNC(=O)[C@H](CCCNC(=N)N)NC(=O)[C@H](CCC(N)=O)NC(=O)[C@@H]2CCCN2C(=O)[C@H](CCCNC(=N)N)NC(=O)[C@@H]2CSSC[C@H](NC(=O)[C@H](CO)NC(=O)[C@H](Cc3ccc(O)cc3)NC(=O)[C@@H](NC(=O)CNC(=O)CNC(C)=O)[C@@H](C)O)C(=O)N[C@@H](Cc3c[nH]cn3)C(=O)N[C@@H](Cc3ccccc3)C(=O)NCC(=O)N[C@@H](C)C(=O)N[C@@H](CC(C)C)C(=O)N[C@@H]([C@@H](C)O)C(=O)N[C@@H](Cc3c[nH]c4ccccc34)C(=O)N[C@@H](C(C)C)C(=O)N2)C(N)=O)C(=O)CCN)C(N)=O)NC(=O)[C@H](C(C)C)NC(=O)[C@H](Cc2c[nH]c3ccccc23)NC(=O)[C@H]([C@@H](C)O)NC(=O)[C@H](CC(C)C)NC(=O)[C@H](C)NC(=O)CNC(=O)[C@H](Cc2ccccc2)NC(=O)[C@H](Cc2c[nH]cn2)NC1=O)[C@@H](C)O gave a haematocrit of 47.1% (healthy BALB/c mice; subcutaneous, 0.08 mg/kg, 14 d, single dose).
Under “stable disease, best response”, O=C1Nc2cc3[nH]nc(-c4ccncc4)c3cc2CN1Cc1ccccc1 is recorded as 20% (RECIST v1.1; human, relapsed or refractory advanced solid tumours; intravenous, 7.2 mg/kg, pooled schedules).
C[C@@H](O)CCOC(=O)C[C@@H](C)O has a metabolite level of -3.47 ± 1.24 µmol/L (refers to: C8 acylcarnitine; human, plasma; 60 min, log2-transformed values).

Some of these lines once more:
CO[C@H]1CC[C@H](N2C(=O)CNc3ncc(-c4ccc(C(C)(C)O)nc4)nc32)CC1: “p4EBP1 change from baseline” -33.3% (flow cytometry; stimulated T cells, human, blood; 60 mg single dose, 5 h, mean; reference: baseline).
COc1nnc2ccc(N3CCC(c4ccc(OCCN5CCN(C)C(=O)[C@H]5C)cc4)CC3)nn12: “time above HEXIM1 threshold” 10.2 h (human patients; 20 mg twice daily, 1.5-fold above baseline).
For C[C@@H](NC(=O)N1C(=O)[C@H](Cc2ccnc(N)c2)[C@H]1C(=O)O)C1CCCCC1, the ACT Emax was 132 s (human; iv infusion, 0.3 mg/kg/h, 24 h).
OC(CCN1CCCCC1)(c1ccccc1)C1CC2C=CC1C2 (stereo not shown) — result for “change, Delta EEG power, in O2-Pz”: 22% (resting-state EEG; healthy elderly humans; oral, 2 mg, eyes closed, LS mean; reference: baseline).
Cc1n[nH]c2ccc(-c3cc(OC[C@@H](N)Cc4ccccc4)cnc3-c3ccoc3)cc12: “log2 fold change” -1.74 (kinase binding, competitor, MIB/MS competition, refers to: CEK1; Candida albicans cell lysate; 10 µM; reference: DMSO).
C[C@@H]1CCC[C@H](n2cnc(-c3cc(Cl)ccc3-n3cc(Cl)nn3)cc2=O)c2cc(ccn2)-c2c(cnn2C(F)F)NC1=O: “concentration for aPTT prolongation” over 40 µM (rat plasma; IC2.5× aPTT, Actin FS reagent).
For CC(C)[C@H](C(=O)Nc1ccc(C(=O)NO)cc1)c1ccccc1, “annual tumour growth rate” read 50.1 %/year (volumetric MRI; human, left IAC schwannoma; 10 days treatment, post-treatment, day 23).
